Published values of several laboratories.
A part holds a random share of what one study measured. Changes are numbered by the printed parent chain.
Chain of UniProt Q9NR20 (whole entry, looked up): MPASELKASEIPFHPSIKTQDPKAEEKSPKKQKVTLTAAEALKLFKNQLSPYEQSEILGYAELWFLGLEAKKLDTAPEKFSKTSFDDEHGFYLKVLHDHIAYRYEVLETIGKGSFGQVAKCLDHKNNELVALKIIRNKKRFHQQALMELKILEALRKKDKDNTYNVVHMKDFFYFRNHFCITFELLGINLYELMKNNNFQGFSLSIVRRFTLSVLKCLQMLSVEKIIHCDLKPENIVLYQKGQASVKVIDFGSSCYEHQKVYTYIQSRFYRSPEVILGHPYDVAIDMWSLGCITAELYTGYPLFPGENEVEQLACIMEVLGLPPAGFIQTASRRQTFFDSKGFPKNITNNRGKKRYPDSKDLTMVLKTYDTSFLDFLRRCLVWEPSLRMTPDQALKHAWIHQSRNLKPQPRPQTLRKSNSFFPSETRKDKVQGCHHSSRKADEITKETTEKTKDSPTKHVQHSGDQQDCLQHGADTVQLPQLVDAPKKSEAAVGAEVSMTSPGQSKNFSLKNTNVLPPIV

Set 1
Target: vanadate, free oxyanion
Method: microfluidic competitive inhibition
Medium: in vitro, cell-free expressed
Concentration: not given
Setting: derived from inhibition constants, unchanged parent 676 nM
Reading: lower = stronger binding
Starting sequence: PafA, mature enzyme, eGFP fusion (Elizabethkingia meningoseptica, UniProt Q9KJX5); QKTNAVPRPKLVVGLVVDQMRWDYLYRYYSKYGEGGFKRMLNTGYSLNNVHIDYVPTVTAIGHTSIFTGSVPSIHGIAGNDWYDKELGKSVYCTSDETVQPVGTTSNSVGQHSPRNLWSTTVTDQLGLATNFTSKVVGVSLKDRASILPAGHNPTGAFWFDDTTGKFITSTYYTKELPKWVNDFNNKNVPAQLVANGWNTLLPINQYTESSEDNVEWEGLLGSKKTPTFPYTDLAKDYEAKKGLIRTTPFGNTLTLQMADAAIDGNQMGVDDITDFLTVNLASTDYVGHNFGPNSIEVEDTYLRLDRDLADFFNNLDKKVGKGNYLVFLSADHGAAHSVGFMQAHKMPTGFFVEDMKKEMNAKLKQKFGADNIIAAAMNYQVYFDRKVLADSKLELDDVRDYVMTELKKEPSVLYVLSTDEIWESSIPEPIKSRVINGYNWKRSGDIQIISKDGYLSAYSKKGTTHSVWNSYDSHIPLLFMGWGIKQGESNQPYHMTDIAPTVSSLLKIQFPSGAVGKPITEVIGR
Variant	oxyanion analog dissociation constant [nM]
K367G	610
Q381G	732
M496G	406
R443V	780
G88A	543
V13A	681
D371V	755
F158V	681

Set 2
Target: CCND1, cyclin fold, Cln2 fusion (human)
Method: yeast growth competition, sequencing
Medium: yeast
Setting: weak parent motif
Relative to: not given
Reading: higher = stronger binding
Starting sequence: viral docking peptide; TSVRRALFTGGSD
Variant	normalised enrichment score
S2H	0.535
S12G	0.0854
L7W	0.221
V3I	0.506
L7G	0.0131
L7I	0.14
R5A	0.276
A6E	0.747

Mixed results
OGT: UDP-N-acetylglucosamine--peptide N-acetylglucosaminyltransferase 110 kDa subunit (OGT, Homo sapiens, UniProt O15294)
Chain of UniProt O15294 (whole entry, looked up): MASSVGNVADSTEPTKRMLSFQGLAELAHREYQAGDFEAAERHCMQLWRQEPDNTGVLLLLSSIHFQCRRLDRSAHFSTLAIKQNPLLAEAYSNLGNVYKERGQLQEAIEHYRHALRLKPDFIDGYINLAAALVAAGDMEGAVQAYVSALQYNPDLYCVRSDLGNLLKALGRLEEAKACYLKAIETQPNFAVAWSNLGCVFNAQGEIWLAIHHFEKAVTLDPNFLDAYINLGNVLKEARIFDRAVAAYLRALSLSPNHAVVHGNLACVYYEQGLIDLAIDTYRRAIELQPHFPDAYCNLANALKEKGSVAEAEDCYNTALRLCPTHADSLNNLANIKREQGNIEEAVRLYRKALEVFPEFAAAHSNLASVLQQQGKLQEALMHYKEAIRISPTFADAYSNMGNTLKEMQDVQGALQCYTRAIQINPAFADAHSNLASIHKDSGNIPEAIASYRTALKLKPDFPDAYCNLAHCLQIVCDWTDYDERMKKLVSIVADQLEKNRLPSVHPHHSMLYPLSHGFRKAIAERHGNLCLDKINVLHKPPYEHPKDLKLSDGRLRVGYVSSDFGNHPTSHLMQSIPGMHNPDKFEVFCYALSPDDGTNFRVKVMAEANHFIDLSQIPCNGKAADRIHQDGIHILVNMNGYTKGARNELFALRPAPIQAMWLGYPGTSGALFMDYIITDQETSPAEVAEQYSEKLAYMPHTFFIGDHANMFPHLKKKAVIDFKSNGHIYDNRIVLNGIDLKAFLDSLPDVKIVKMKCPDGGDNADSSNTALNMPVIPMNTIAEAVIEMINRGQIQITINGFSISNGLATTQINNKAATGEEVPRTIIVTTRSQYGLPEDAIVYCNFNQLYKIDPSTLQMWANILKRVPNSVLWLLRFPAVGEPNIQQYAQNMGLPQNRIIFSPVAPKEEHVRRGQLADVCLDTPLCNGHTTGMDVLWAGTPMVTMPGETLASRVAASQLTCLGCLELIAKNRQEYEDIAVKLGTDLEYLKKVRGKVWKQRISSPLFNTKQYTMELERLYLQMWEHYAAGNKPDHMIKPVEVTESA
Molecule	target	assay	test system	conditions	how to read	quantity	result
TAPFYPPAYQI	OGT	binding, phage display NGS	peptide	concentration not given	relative to: beads alone	enrichment fold change	1
N/C(=N\[N+](=O)[O-])N/N=C\c1ccc(-c2cccc([N+](=O)[O-])c2)o1	Dual specificity tyrosine-phosphorylation-regulated kinase 4 (DYRK4, Homo sapiens, UniProt Q9NR20)	enzyme activity, inhibitor	–	0.5 µM	relative to: control	remaining activity	92.7%
TAPFYPPAYEI	OGT	binding, phage display NGS	peptide	concentration not given	relative to: beads alone	enrichment fold change	0.929

Some of these lines once more (set 1):
Variant	oxyanion analog dissociation constant [nM]
G88A	543
